Measurements collected from several papers.
Parts stem from different laboratories: compare values within a part only. Values joined by “and” are separate records of one study, mostly repeats; a detail may differ. ± marks the error that the study gave.

Study 1
Compound: Cc1ccc(O)c(C)c1-c1cnc2[nH]c(-c3cnc(N4CCC5(CC4)CC(N4CCN(c6ccc(N[C@H]7CCC(=O)N(C)C7=O)cc6F)CC4)CO5)nc3)cc2c1C#N (single isomer, unassigned)
PKMYT1: Membrane-associated tyrosine- and threonine-specific cdc2-inhibitory kinase (PKMYT1, Homo sapiens, UniProt Q99640)
Chain of UniProt Q99640 (whole entry, looked up): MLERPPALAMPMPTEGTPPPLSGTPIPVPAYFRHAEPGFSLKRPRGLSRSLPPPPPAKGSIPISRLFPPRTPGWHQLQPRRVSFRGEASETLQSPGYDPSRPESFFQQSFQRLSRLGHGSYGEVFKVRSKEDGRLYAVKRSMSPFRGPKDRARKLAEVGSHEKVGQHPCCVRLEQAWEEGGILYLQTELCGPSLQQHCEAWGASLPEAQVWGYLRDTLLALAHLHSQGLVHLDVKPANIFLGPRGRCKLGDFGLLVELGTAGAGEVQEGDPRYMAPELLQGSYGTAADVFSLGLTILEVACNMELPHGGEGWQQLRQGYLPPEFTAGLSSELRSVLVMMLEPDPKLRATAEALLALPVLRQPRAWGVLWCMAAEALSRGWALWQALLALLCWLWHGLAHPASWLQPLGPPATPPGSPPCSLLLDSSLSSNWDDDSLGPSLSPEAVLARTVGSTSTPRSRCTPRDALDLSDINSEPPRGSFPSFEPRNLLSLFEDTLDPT
It gave -5.25% for inhibition (HCC1569; automated capillary immunoblot, item: CDK1 phospho-Thr14; 0.15 nM, 24 h).
For HCC1569; automated capillary immunoblot, item: CDK1 phospho-Thr14; 111.11 nM, 24 h: inhibition read 56.9%.
For PKMYT1; enzyme activity, inhibitor; 150 pM: inhibition read -1.09% and -4.97%.
The inhibition was -0.184% (HCC1569; automated capillary immunoblot, item: CDK1 phospho-Thr14; 0.02 nM, 24 h).
HCC1569; automated capillary immunoblot, item: CDK1 phospho-Thr14; 4.12 nM, 24 h — inhibition: 6.7%.
PKMYT1; enzyme activity, inhibitor; 460 pM — inhibition: 0.82% and 2.85%.
It gave 35.4% for inhibition (HCC1569; automated capillary immunoblot, item: CDK1 phospho-Thr14; 37.04 nM, 24 h).
The inhibition was 8.93% and 12% (PKMYT1; enzyme activity, inhibitor; 1.37 nM).

Study 2
Structure (SMILES): CCN1/C(=C/C=C2\CCCC(/C=C/C3=[N+](CC)c4ccccc4C3(C)C)=C2NCCCCCCCCN2CCC(Nc3nc4ccccc4n3Cc3ccc(F)cc3)CC2)C(C)(C)c2ccccc21
Cell line: U-87 MG
Concentration: concentration not given
Baseline: DMSO
It gave -1.49 for “log2 fold change” (item: TES mRNA).
For item: TMEM41B mRNA: “log2 fold change” read 1.23.
For item: RMI2 mRNA: “log2 fold change” read -1.95.
item: CSF1R mRNA — “log2 fold change”: -2.42.
The “log2 fold change” was -2.68 (item: ELFN2 mRNA).
The “log2 fold change” was 0.948 (item: SGMS1 mRNA).
It gave -1.05 for “log2 fold change” (item: BTN3A3 mRNA).
It gave -2.98 for “log2 fold change” (item: NPAS4 mRNA).
The “log2 fold change” was -1.93 (item: MGAT5B mRNA).
The “log2 fold change” was -0.934 (item: PDS5B mRNA).
For item: DTYMK mRNA: “log2 fold change” read -1.35.
It gave 0.985 for “log2 fold change” (item: ITPKC mRNA).
item: GSN mRNA — “log2 fold change”: -0.918.
It gave 1.02 for “log2 fold change” (item: PMEPA1 mRNA).
item: RARA mRNA — “log2 fold change”: -0.898.
For item: IL1B mRNA: “log2 fold change” read 3.22.

Study 3
Structure (SMILES): C[C@@H]1CN(c2ccc(-c3cc(C(=O)NCCOCCOCCOCCOCCNC(=O)/C=C/c4[nH]cc(C(=O)N[C@@H](CC(N)=O)c5ccc(F)c(Cl)c5)c4-c4ccc(Cl)cc4F)ccc3F)cc2NC(=O)c2c[nH]c(=O)cc2C(F)(F)F)C[C@H](C)N1C
Observed: thermal unfolding
Method: differential scanning fluorimetry
Concentration: 5.5 µM
Reading: higher = more unfolded
DCAF1: DDB1- and CUL4-associated factor 1 (DCAF1, Homo sapiens, UniProt Q9Y4B6)
Chain of UniProt Q9Y4B6 (whole entry, looked up): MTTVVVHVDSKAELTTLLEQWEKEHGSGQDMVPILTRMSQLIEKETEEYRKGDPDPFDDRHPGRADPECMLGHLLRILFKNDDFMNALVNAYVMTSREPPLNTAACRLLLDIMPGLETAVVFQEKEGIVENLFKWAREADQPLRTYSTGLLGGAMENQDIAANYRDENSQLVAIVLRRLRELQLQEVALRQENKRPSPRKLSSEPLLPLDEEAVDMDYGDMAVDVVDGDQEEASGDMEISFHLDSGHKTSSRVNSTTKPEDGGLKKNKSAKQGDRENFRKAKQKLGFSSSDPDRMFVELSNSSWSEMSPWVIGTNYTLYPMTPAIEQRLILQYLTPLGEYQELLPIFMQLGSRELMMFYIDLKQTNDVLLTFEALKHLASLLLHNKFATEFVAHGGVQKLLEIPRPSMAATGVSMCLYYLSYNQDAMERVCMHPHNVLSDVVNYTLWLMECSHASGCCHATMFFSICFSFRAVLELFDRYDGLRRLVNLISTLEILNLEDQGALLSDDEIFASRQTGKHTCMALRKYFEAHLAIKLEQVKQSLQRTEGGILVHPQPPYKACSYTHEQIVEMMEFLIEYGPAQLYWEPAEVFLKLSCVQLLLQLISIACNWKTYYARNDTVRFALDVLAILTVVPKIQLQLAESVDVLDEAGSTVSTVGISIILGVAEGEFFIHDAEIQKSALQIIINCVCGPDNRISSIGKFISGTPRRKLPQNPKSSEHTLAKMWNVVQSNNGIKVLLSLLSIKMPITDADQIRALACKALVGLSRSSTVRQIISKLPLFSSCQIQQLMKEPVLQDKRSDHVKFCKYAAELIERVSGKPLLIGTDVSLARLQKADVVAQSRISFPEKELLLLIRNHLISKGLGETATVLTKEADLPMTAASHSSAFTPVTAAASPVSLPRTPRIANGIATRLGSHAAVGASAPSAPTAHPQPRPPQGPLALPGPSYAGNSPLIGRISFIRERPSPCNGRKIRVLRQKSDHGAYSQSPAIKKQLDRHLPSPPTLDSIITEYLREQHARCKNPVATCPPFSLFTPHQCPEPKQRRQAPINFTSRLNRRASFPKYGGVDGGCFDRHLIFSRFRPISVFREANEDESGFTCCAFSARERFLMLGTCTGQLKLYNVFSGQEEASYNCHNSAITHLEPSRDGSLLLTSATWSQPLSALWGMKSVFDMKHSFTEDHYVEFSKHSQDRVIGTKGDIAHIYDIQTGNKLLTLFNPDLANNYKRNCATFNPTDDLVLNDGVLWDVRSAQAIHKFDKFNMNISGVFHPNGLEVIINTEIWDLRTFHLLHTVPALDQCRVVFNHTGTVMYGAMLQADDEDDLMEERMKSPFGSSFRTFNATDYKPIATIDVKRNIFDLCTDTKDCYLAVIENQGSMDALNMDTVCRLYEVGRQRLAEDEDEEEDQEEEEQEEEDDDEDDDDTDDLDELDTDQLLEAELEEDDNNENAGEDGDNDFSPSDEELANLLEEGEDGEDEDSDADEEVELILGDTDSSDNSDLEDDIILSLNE
WDR5: WD repeat-containing protein 5 (WDR5, Homo sapiens, UniProt P61964)
For DCAF1; 72.41 °C: “SYPRO Orange fluorescence” read 52900 a.u.
For WDR5; 64.01 °C: “SYPRO Orange fluorescence” read 14000 a.u.
WDR5; 61.01 °C — “SYPRO Orange fluorescence”: 15400 a.u.
For DCAF1; 83.81 °C: “SYPRO Orange fluorescence” read 41500 a.u.
For WDR5; 73.81 °C: “SYPRO Orange fluorescence” read 23000 a.u.
It gave 53300 a.u. for “SYPRO Orange fluorescence” (DCAF1; 72.01 °C).
The “SYPRO Orange fluorescence” was 8950 a.u. (DCAF1; 26 °C).
WDR5; 89.01 °C — “SYPRO Orange fluorescence”: 52200 a.u.
It gave 54300 a.u. for “SYPRO Orange fluorescence” (DCAF1; 71.21 °C).
The “SYPRO Orange fluorescence” was 48300 a.u. (DCAF1; 76.61 °C).
DCAF1; 81.41 °C — “SYPRO Orange fluorescence”: 43600 a.u.

Mixed results
CN(C1COC1)C(C)(C)/C=C(\C#N)C(=O)N1CCC[C@H]1Cn1nc(-c2ccc(Oc3ccccc3)cc2F)c2c(N)ncnc21 has a dissociation half-life of 51 ± 3 s (10-fold dilution, LC-MS, with: β-mercaptoethanol).

Excerpt of the above (study 3):
The “SYPRO Orange fluorescence” was 8950 a.u. (DCAF1; 26 °C).
For DCAF1; 83.81 °C: “SYPRO Orange fluorescence” read 41500 a.u.
For WDR5; 64.01 °C: “SYPRO Orange fluorescence” read 14000 a.u.
For WDR5; 73.81 °C: “SYPRO Orange fluorescence” read 23000 a.u.
WDR5; 61.01 °C — “SYPRO Orange fluorescence”: 15400 a.u.
